Published values of several laboratories.
Compare with care: the assays were run in different laboratories. ± gives the spread as reported.
VHL with Elongin B/C: von Hippel-Lindau disease tumor suppressor, with Elongin B/C (VHL, Homo sapiens, UniProt P40337)
LGALS3: Galectin-3 (LGALS3, Homo sapiens, UniProt P17931)
T1: FMN riboswitch RNA (Escherichia coli); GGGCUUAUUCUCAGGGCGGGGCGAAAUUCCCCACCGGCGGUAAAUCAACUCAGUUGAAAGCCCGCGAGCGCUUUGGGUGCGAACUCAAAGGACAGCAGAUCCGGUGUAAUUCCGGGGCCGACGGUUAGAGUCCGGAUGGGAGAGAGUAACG

SMILES	target	assay	system	setting	scale	measurement	result
C[C@@H](COc1ccc(F)cc1)C(=O)n1nc(N)c2ccc(CO)cc21	CFTR (Homo sapiens, UniProt P13569, G551D)	channel activity, potentiator, inside-out patch clamp	CHO cells	10 µM, together with: 3 mM ATP	baseline: untreated	fold activation	25 fold
C[C@@H](N)[C@H]1CC[C@H](C(=O)Nc2ccncc2)CC1	PRKCH (Homo sapiens, UniProt P24723)	enzyme activity, inhibitor, radiometric		10 µM		activity vs control	< 10%
Cc1cc(C)c2sc(NC(=O)C3CCN(S(=O)(=O)c4ccc(F)cc4)CC3)nc2c1	Napepld (Mus musculus, UniProt Q8BH82)			10 µM, together with: flame-NAPE substrate		K1/2	5.9 µM
CC(=O)N1C[C@H](O)C[C@H]1C(=O)NCc1ccccc1	VHL with Elongin B/C	ligand-observed 1H NMR		1 mM, 278 K, together with: VCB complex 10 µM		CPMG signal loss	45%
CCCCCCCCSc1nc2c([nH]1)c(=O)n(C)c(=S)n2C	Androgen receptor (AR, Homo sapiens, UniProt P10275)	reporter gene, antagonist, PSA-luciferase	HeLa-A6	10 µM, 24 h, together with: 5 nM dihydrotestosterone	baseline: maximal activity	remaining activity	81%
COc1ccc(CNc2nc3c(c(=O)[nH]2)[n+](C)cn3C2OC(COP(=O)(O)OP(=O)([O-])OP(=O)(O)OCC3OC(n4cnc5c(=O)[nH]c(N)nc54)C(O)C3O)C(O)C2O)cc1 (stereo not shown)	DNA-directed RNA polymerase (Enterobacteria phage SP6, UniProt P06221)	in vitro transcription, densitometry	short RNA			capping efficiency	77.3%
CCCN(CC(=O)N(CCC)CC(=O)N(CCC)CC(=O)N(CCC)CC(=O)N(CCC)CC(=O)N(CC(N)=O)Cc1cn(CCCNC(=O)CCCOc2cccc(-c3nc4ccc(-c5nc6ccc(N7CCN(C)CC7)cc6[nH]5)cc4[nH]3)c2)nn1)C(=O)CNCc1cn(CCCNC(=O)CCCOc2cccc(-c3nc4ccc(-c5nc6ccc(N7CCN(C)CC7)cc6[nH]5)cc4[nH]3)c2)nn1	MBNL1–r(CUG)109 complex	MBNL1 displacement	0.65 pmol r(CUG)109	unit not given, together with: yeast tRNA 3.7 µM	baseline: monomer 2 IC50 per module	multivalent effect	2.5
COC(=O)c1ccc(CNC(=O)[C@@H]2C[C@@H](O)CN2C(=O)Cc2ccccc2)cc1	VHL with Elongin B/C	isothermal titration calorimetry		25 °C		entropic term (−TΔS)	-2.96 ± 0.04 kcal/mol
CCc1nc2cc3ccccc3cc2cc1C(=O)N1CCC[C@H]1C(=O)N[C@@H](C/C=C/C[C@H](NC(=O)[C@@H]1CCCN1C(=O)c1cc2cc3ccccc3cc2nc1CC)C(=O)N[C@@H](CCCCN)C(=O)NCCCN)C(=O)N[C@@H](CCCCN)C(=O)NCCCN	(CUG)10 RNA	SPR				residence time	483 s
CC(C)C[C@H](NC(=O)CN)C(=O)N[C@@H](CO)C(=O)N[C@@H](Cc1ccccc1)C(=O)N[C@@H](C)C(=O)N[C@@H](Cc1ccccc1)C(=O)N1CCC[C@H]1C(=O)N[C@@H](C)C(=O)N[C@@H](CCCCN)C(=O)N[C@@H](CC(=O)O)C(=O)N[C@@H](C)C(=O)N[C@@H](CCC(=O)O)C(=O)N[C@@H](CC(N)=O)C(=O)N[C@@H](C)C(=O)N[C@@H](CO)C(=O)N[C@@H](CO)C(=O)N1CCC[C@H]1C(=O)N[C@H](C(=O)O)C(C)C	Peptide cyclase 1 (Gypsophila vaccaria, UniProt R4P353, S562A)	ITC		pH 8.0, 25 °C		ΔH	-6.8 ± 0.1 kcal/mol
CSCC[C@H](NC(=O)[C@H](CCC(N)=O)NC(=O)[C@H](Cc1ccccc1)NC(=O)CNC(=O)CNC(C)=O)C(=O)N[C@@H](C)C(=O)N[C@@H](CC(C)C)C(=O)N[C@H](C(=O)N1CCC[C@H]1C(=O)N[C@H](C(=O)N[C@H](C(=O)O)C(C)C)C(C)C)[C@@H](C)O	Heat shock cognate 71 kDa protein, substrate-binding domain (HSPA8, Homo sapiens, UniProt P11142)	competition fluorescence polarization		concentration not given		binding	inactive
COC(=O)C1=Cc2ccccc2S1(=O)=O	CFTR (Homo sapiens, UniProt P13569, del508-508)	inhibitor, cycloheximide chase	BHK	5 or 10 µM, 24 h, together with: bortezomib		ubiquitination and degradation	inhibited
Oc1c(C(Nc2nc3ccccc3s2)c2ccccc2OCc2ccccc2)ccc2cccnc12 (stereo not shown)	Genome polyprotein, NS2B-NS3 protease (GP1, West Nile virus, UniProt Q9Q6P4)	enzyme activity, inhibitor		0.1% CHAPS, together with: tetrapeptide substrate		Hill slope	1.17 ± 0.08
CN(C)CCNC(=O)c1ccc(C2(NC(=O)c3cc4cc(C(=O)O)cnc4n3C)CC2)cc1	T1, FMN riboswitch RNA (Escherichia coli)	ITC		KCl 100 mM		Kd	11.4 nM
CNc1ccccc1C(=O)O[C@H]1C[C@H](n2cnc3c(N)ncnc32)O[C@@H]1COP(=O)(O)OP(=O)(O)O	Unconventional myosin-Va (Gallus gallus, UniProt Q02440, D297C/G292C/I296C/S293C/V295G)	stopped-flow FRET		4 °C, together with: MgCl2 2 mM		dissociation rate constant	0.7 ± 0.2 s⁻¹
O=C([O-])CN1CCN(CC(=O)[O-])CCN(C(CCC(=O)NCCCCCN(CCCC[C@H](NC(=O)N[C@@H](CCC(=O)O)C(=O)O)C(=O)O)C(=O)c2ccc(I)cc2)C(=O)O)CCN(CC(=O)[O-])CC1.[68Ga+3] (stereo partly shown)	FOLH1 (Homo sapiens, UniProt Q04609)	PET/CT	prostate cancer patients, primary prostate cancer lesions		baseline: primary lesions over salivary glands	tumour-to-normal tissue ratio	2.79 ± 2.74
COc1c(F)c(F)c(C(=O)N[C@H]2[C@@H](O)[C@@H](CO)O[C@@H](S[C@@H]3O[C@H](CO)[C@H](O)[C@H](NC(=O)c4c(F)c(F)c(OC)c(F)c4F)[C@H]3OS(=O)(=O)O)[C@@H]2O)c(F)c1F	LGALS3	ITC		Kd fixed from FP		ΔH	-11 ± 0.239 kcal/mol
CC1=C(O)C(=O)C=C2C1=CC=C1[C@@]2(C)CC[C@@]2(C)[C@@H]3C[C@](C)(C(=O)NCCOCCOCCOCCOCC(=O)N[C@H](C(=O)N4C[C@H](O)C[C@H]4C(=O)N[C@@H](C)c4ccc(-c5scnc5C)cc4)C(C)(C)C)CC[C@]3(C)CC[C@]12C	Nuclear receptor subfamily 4 group A member 1 (Nr4a1, Mus musculus, UniProt P12813)	degrader, immunoblotting	SW1 mouse melanoma	concentration not given, 16 h		protein level	decreased
Nc1ncnc2c1ncn2[C@@H]1O[C@H](COP(=O)(O)OP(=O)(O)OP(=O)(O)O)[C@@H](O)[C@H]1O	MAT2A (Homo sapiens, UniProt P31153)	substrate		200 µM, 25 °C, enzyme 5 µM, no methionine		ATPase rate	0.0018 ± 9e-05 s⁻¹

SMILES	target	assay	system	setting	scale	measurement	result
C[C@@]1(c2nc(-c3ccc(F)c4cn[nH]c34)no2)CCCN(C(=O)c2ccc(F)nc2)C1	CNR1 (Homo sapiens, UniProt P21554)		CNR1-transfected cells	up to 30 µM, together with: forskolin		forskolin-stimulated cAMP production	no effect
CCc1cc(C)n2nc(-c3ccc(OCC[18F])cc3)c(CC(=O)N(CC)CC)c2n1	Tspo (Rattus norvegicus, UniProt P16257)	two-tissue compartment model	rat C6 glioma model, brain	60 min dynamic PET		k4 rate constant	0.082 ± 0.015 min⁻¹
Clc1ccccc1C(Nc1nccs1)(c1ccccc1)c1ccccc1	Gap junction alpha-8 protein (Gja8, Mus musculus, UniProt P28236)		N2a	10 µM		activity	active
CC1=C(C)C(Oc2c(F)cc3c(C)cc(=O)oc3c2F)OC1=O (racemic)	D14 (Arabidopsis thaliana, UniProt Q9SQR3)	enzyme activity, substrate, pre-steady-state kinetics				K1/2	1.19 µM
N#CCCC1CCN(C(=S)c2ccc(-c3cc(Cl)ccc3Cl)o2)CC1	Atrial natriuretic peptide receptor 1 (Homo sapiens, UniProt P16066)	activator, ELISA	HEK293 cells expressing GC-A	concentration not given, together with: ANP 100 pM		cGMP production	no effect
O=C(c1cc2c(s1)CCCCC2)N1CCC(n2c(=O)[nH]c3ccccc32)CC1	Trpc6 (Mus musculus, UniProt Q61143)	channel activation, agonist, whole-cell patch clamp		wild type		saturating concentration	~3 µM
CC(C)C[C@H](NC(=O)[C@H](Cc1ccc(O)cc1)NC(=O)[C@@H](CCCNC(=N)N)NC(=O)[C@@H](CO)NC(=O)[C@H](Cc1ccccc1)NC(=O)[C@H](CC1CCCCC1)NC(=O)[C@H](CC(=O)O)NC(=O)CN1CCN(CC(=O)O)CCN(CC(=O)O)CCN(CC(=O)O)CC1)C(=O)N[C@@H](Cc1c[nH]c2ccccc12)C(=O)N[C@@H](CO)C(N)=O	Urokinase plasminogen activator surface receptor (Homo sapiens, UniProt Q03405)	binding, SPR				kon	460000 M⁻¹ s⁻¹
CC(C)C[C@H](NC(=O)[C@H](N)Cc1ccc(O)cc1)C(=O)N(C)[C@@H](Cc1ccccc1)C(=O)N[C@@H](CCC(N)=O)C(=O)N1CCC[C@H]1C(=O)N[C@@H](CCC(N)=O)C(=O)N[C@@H](CCCNC(=N)N)C(=O)N[C@@H](Cc1ccccc1)C(N)=O	Neuropeptide FF receptor 2 (Homo sapiens, UniProt Q9Y5X5)	agonist		10 µM	baseline: maximal activation	stimulation	231%
O=P(O)(O)O[C@@H]1[C@@H](O)[C@H](O)[C@H](O)[C@H](O)[C@H]1OP(=O)(O)O	Itpr1 (Rattus norvegicus, UniProt P29994)	binding, 3H-IP3 competition	rat cerebellum			Hill coefficient	0.8 ± 0.1
O=c1c(Cl)c(Cl)cnn1Cc1ccccc1Cl	P4HB (Homo sapiens, UniProt P07237)	insulin reductase activity, inhibitor				highest concentration without inhibition	> 100 µM
COc1ccc(-c2cc(C(F)(F)F)nc(NCc3ccccc3)n2)cc1OC	GLP1R (Homo sapiens, UniProt P43220)	efficacy cooperativity, allosteric modulator	HEK-293T overexpressing GLP1R	together with: GLP-1		cooperativity factor beta	2
O=C1CCc2ccc(OCCCCN3CCN(c4cccc5c4ccn5Cc4ccccc4)CC3)cc2N1	D(2) dopamine receptor, long isoform (DRD2, Homo sapiens, UniProt P14416)		human cells	concentration not given		activity	inactive
COc1c(F)c(F)c(C(=O)N[C@H]2[C@@H](O)[C@@H](CO)O[C@@H](S[C@@H]3O[C@H](CO)[C@H](O)[C@H](NC(=O)c4c(F)c(F)c(OC)c(F)c4F)[C@H]3O)[C@@H]2O)c(F)c1F	LGALS3	ITC		pH 7.2, 4% DMSO		ΔG	-8.56 ± 0.12 kcal/mol
CC(=O)N[C@H]1[C@@H](O[C@H](C)[C@H](NC(=O)[C@@H](NC(=O)CNC(=O)[C@@H](N)Cc2c[nH]cn2)C(C)C)C(=O)N[C@@H](CO)C(=O)N[C@@H](C)C(=O)N2CCC[C@H]2C(=O)N[C@@H](CC(=O)O)C(=O)N[C@H](C(=O)N[C@@H](CCCNC(=N)N)C(=O)N2CCC[C@H]2C(=O)N[C@@H](C)C(=O)N2CCC[C@H]2C(=O)NCC(=O)N[C@@H](CO)C(N)=O)[C@@H](C)O)O[C@H](CO)[C@H](O)[C@@H]1O[C@@H]1O[C@H](CO)[C@H](O)[C@H](O)[C@H]1O	LGALS3	binding, isothermal titration calorimetry		full-length protein		–TΔS	-3.5 kcal/mol
[11CH3]Nc1ccc(-c2nc3ccc(O)cc3o2)cn1	APP (Homo sapiens, UniProt P05067)	binding, PET	Alzheimer's disease patients, posterior cingulate cortex	unit not given	baseline: control subjects	effect size of DVR	4.49
CC[C@@]1(c2cccc(C(F)(F)F)c2)C2=C(Nc3n[nH]cc31)[C@H](F)C(C)(C)CC2=O (single isomer, unassigned)	Glycogen synthase kinase-3 alpha (Gsk3a, Rattus norvegicus, UniProt P18265)	kinobead chemoproteomics	P10 rat, brain	60 mg/kg, 3 h post-dose at Cmax		target engagement	> 90%
COc1cccc(-c2nc(Nc3nc4ccccc4o3)ncc2C#N)c1	Grm5 (Rattus norvegicus, UniProt P31424)	calcium mobilization, negative allosteric modulator		together with: glutamate EC80	baseline: maximal glutamate response	maximal response	2.4 ± 0.3%
NC(=O)C1CCNC(=O)C(CCCNC(=O)c2cnccn2)NC(=O)C(Cc2ccco2)NC(=O)C(CC=Cc2ccccc2)NC(=O)C=CC(=O)N1 (stereo not shown)	ERBB4 (Homo sapiens, UniProt Q15303)	DNA-templated library selection		one selection round		enrichment factor	0.82

Excerpt of the above:
SMILES	target	assay	system	setting	scale	measurement	result
C[C@@H](N)[C@H]1CC[C@H](C(=O)Nc2ccncc2)CC1	PRKCH (Homo sapiens, UniProt P24723)	enzyme activity, inhibitor, radiometric		10 µM		activity vs control	< 10%
Cc1cc(C)c2sc(NC(=O)C3CCN(S(=O)(=O)c4ccc(F)cc4)CC3)nc2c1	Napepld (Mus musculus, UniProt Q8BH82)			10 µM, together with: flame-NAPE substrate		K1/2	5.9 µM
CC(=O)N1C[C@H](O)C[C@H]1C(=O)NCc1ccccc1	VHL with Elongin B/C	ligand-observed 1H NMR		1 mM, 278 K, together with: VCB complex 10 µM		CPMG signal loss	45%
CCCCCCCCSc1nc2c([nH]1)c(=O)n(C)c(=S)n2C	Androgen receptor (AR, Homo sapiens, UniProt P10275)	reporter gene, antagonist, PSA-luciferase	HeLa-A6	10 µM, 24 h, together with: 5 nM dihydrotestosterone	baseline: maximal activity	remaining activity	81%
COc1ccc(CNc2nc3c(c(=O)[nH]2)[n+](C)cn3C2OC(COP(=O)(O)OP(=O)([O-])OP(=O)(O)OCC3OC(n4cnc5c(=O)[nH]c(N)nc54)C(O)C3O)C(O)C2O)cc1 (stereo not shown)	DNA-directed RNA polymerase (Enterobacteria phage SP6, UniProt P06221)	in vitro transcription, densitometry	short RNA			capping efficiency	77.3%
